Results gathered from unrelated publications.
Each numbered part is a random draw from the data of one study; scales do not carry over between parts. Values joined by “and” are separate records of one study, mostly repeats; a detail may differ.

Sample 1
Target: Histone acetyltransferase KAT6A, both winged helices, GST fusion (KAT6A, Homo sapiens, UniProt Q92794, residues 1-181)
Technique: protein binding microarray
Molecule type: double-stranded DNA, one strand shown
Sample: in vitro
Concentration: not given
Setting: 8-mer, flanks averaged, mean of 2 arrays, mostly near background
Reference: not given
Reading: higher = stronger binding
Target sequence (chain): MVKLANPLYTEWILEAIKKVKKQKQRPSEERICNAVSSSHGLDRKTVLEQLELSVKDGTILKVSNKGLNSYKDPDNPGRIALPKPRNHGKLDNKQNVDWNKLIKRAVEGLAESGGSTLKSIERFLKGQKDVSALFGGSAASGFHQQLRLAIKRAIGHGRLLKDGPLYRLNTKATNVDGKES
With `GCGGTTAC` the E-score was 0.292.
`AAAGGCGC` has an E-score of 0.266.
The E-score of `CGTAGATC` is reported as 0.0378.
`ATGCAATA` has an E-score of -0.0997.
With `TAACGCAA` the E-score was 0.184.

Sample 2
Target: POU, POU domain (Salpingoeca helianthica)
Technique: Spec-seq
Molecule type: double-stranded DNA, one strand shown
Sample: in vitro
Concentration: not given
Setting: whole probe, mean of replicates
Reference: not given
Reading: lower = stronger binding
All sequences stand within: GAGTCGTCTCGTCAGCAC … CCGTAGAGCACTCAGGTC
Construct (chain): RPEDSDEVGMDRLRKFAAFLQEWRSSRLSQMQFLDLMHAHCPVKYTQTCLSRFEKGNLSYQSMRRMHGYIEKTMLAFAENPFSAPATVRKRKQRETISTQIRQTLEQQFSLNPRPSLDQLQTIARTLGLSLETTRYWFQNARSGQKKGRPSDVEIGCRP
Under “relative binding energy”, `ATGCCACA` is recorded as 1.2 ln ratio.
For `ATACGCAT`, “relative binding energy” read 1.21 ln ratio.
`ATTGGAAT` — result for “relative binding energy”: 1.03 ln ratio.
For `AAACTAAT`, “relative binding energy” read 0.285 ln ratio.
For `ATGCTGCT`, “relative binding energy” read 1.53 ln ratio.
For `TGAATAAT`, “relative binding energy” read -0.0322 ln ratio.

Sample 3
Target: Sal-like protein 4, full length isoform B (SALL4, Homo sapiens, UniProt Q9UJQ4-2, residues 1-616)
Technique: universal PBM
Molecule type: double-stranded DNA, one strand shown
Sample: in vitro
Concentration: not given
Setting: 8-mer, flanks averaged, mean of replicates
Reading: higher = stronger binding
The E-score of `ACGAGCAT` is reported as 0.113.
`CCTCAGGA` has an E-score of -0.213.
`AACACAGG` has an E-score of -0.0996.
The E-score of `ATAGCTCA` is reported as 0.0629.
For `CAGCGGGA`, the E-score was -0.316.
For `AGGGTGAG`, the E-score was -0.208.

Further values, each from its own experiment
`PhoQ, residues 284 288 289 292 302 303 TVTVVA` has a fold induction of 4.96 and 8.37 (PhoP, residues 12 14 15 18 19 LWHSL (Escherichia coli, UniProt P23836); Sort-seq, refers to: YFP reporter; E. coli; PhoQ-PhoP variant library, with: 10 µM Mg2+; reference: high Mg2+ state, higher = stronger signaling).

A few entries again (sample 2):
For `ATACGCAT`, “relative binding energy” read 1.21 ln ratio.
`ATTGGAAT` — result for “relative binding energy”: 1.03 ln ratio.
For `AAACTAAT`, “relative binding energy” read 0.285 ln ratio.
